Assay results of several laboratories.
Numbered parts are unrelated; each lists some results of a single study.

Study 1 — technique: protein-binding microarray; molecule type: double-stranded DNA, one strand shown; matrix: in vitro; tested at: 2200 nM top; setting: 60-bp whole probe; together with: salmon DNA 0.4 mg/ml; baseline: random background probes; reading: higher = stronger binding; quantity: fitted relative affinity; shared flanks, not repeated: GCCTAGCAC … GTCTTGATTCGCTTGACGCTGCTG
Target: Interferon regulatory factor 7, full length, phosphomimetic (IRF7, Homo sapiens, UniProt Q92985, residues 1-503, S471D/S472D/S475D/S476D/S477D/S483D/S484D/S487D)
Chain of UniProt Q92985 (whole entry, unmodified, looked up): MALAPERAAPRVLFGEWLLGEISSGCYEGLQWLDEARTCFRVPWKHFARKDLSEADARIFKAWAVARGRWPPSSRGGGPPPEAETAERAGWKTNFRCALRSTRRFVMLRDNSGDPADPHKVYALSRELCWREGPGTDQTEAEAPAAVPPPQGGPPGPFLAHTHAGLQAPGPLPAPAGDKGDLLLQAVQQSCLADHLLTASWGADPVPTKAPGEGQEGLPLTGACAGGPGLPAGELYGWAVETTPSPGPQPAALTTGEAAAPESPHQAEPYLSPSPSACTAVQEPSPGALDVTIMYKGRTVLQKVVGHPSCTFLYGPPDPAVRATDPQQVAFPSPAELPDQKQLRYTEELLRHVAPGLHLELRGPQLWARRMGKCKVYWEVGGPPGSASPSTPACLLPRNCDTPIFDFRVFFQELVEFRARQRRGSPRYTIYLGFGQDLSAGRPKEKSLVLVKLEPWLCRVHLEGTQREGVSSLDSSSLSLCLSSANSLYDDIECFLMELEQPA
GACGGACTAGGGTTTCGGGACGTGCTA: 0.653 z-score
GACGGACTGGACTTTCGGAACGTGCTA: 2.5 z-score
TCATTTTCATTTTTTTTACTGTGCTAG: 5.07 z-score
TTAGATTTCAGTATCGATGAGTGCTAG: 0.54 z-score
TTAGGACTACTTCTCCTTTAGTGCTAG: 0.854 z-score
TTAGGACTGGACTTTCGGTTTGTGCTA: 11.1 z-score
TTAGATATCGGGTATCGATTCGTGCTA: 0.698 z-score
TAAGGTTTCGGTTCCGGTTAGTGCTAG: 11.1 z-score
TAAGATTTCAGTTCCGATTAGTGCTAG: 1.79 z-score

Study 2 — technique: protein-binding microarray; molecule type: double-stranded DNA, one strand shown; matrix: in vitro; tested at: not given; reading: higher = stronger binding; quantity: E-score
Target: Transcriptional repressor CTCF (CTCF, Homo sapiens, UniProt P49711, residues 1-727, full length assumed)
Chain of UniProt P49711 (whole entry, looked up): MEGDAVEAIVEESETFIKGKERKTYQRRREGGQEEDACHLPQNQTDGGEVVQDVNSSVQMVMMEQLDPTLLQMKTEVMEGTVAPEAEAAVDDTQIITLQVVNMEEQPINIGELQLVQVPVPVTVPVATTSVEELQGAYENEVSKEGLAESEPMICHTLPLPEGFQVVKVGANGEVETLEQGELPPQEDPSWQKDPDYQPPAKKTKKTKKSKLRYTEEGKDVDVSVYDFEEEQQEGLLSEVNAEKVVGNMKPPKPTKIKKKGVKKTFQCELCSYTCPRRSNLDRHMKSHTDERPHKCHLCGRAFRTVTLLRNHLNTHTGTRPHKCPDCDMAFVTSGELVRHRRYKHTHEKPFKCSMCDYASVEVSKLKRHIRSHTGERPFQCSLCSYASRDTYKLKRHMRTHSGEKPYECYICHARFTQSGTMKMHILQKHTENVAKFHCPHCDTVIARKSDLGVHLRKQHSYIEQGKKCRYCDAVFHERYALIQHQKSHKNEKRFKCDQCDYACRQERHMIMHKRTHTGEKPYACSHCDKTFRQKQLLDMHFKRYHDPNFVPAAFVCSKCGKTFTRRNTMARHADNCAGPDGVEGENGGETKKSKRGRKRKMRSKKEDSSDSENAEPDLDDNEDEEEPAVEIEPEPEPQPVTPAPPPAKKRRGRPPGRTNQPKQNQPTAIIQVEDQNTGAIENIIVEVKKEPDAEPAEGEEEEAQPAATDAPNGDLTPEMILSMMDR
Setting: k-mer, scored over probes, only values ≥0.25
ACGTATGA: 0.297
CGTTTTTC: 0.257
GCGCCCTA: 0.27
GTATATAA: 0.293
GATGCGCC: 0.269
AATAAAAT: 0.259
CGAATATA: 0.275
AATGCGCG: 0.394

Study 3 — technique: RNA Bind-n-Seq; molecule type: RNA; matrix: in vitro; tested at: 365 nM; baseline: no-protein control; reading: higher = stronger binding; quantity: RBNS enrichment (R)
Target: RNA binding protein fox-1 homolog 2, RRM domain, GST-SBP tag (RBFOX2, Homo sapiens, UniProt O43251-10, residues 100-194)
Setting: natural RNA segment, single round, ends assumed
Residues (chain): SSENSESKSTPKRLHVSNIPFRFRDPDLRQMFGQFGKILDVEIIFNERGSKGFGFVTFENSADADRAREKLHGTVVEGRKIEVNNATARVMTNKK
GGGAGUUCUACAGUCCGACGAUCGUUUCAUCAGAUCUGAUUUCUGAGAGUCUGGGGAUCUGCCAUGGUGGAAAGUGCCCCUCAAAAGCAUUUGUGUGGCCACAUGAACUGGCUGGCACCAGGGGAGUGAAACUUGGAAUUCUCGGGUGCCAA: 0.439
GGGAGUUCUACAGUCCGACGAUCGACUGUGUGGGGCUCAGCAUUGGGAGGGGUUGCACAUGUCCCAGCCUUUGGCCCCCUUACUUUUCAGCAAGCCAGGGGCCCAGCAGUCAGCUCCCAGGAUGUGUGGGGAGUGGAAUUCUCGGGUGCCAA: 2.73
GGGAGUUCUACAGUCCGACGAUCAAUUUAAUGCUUCUUUUCCUUAAAAAAUAAAAAAAAAAAUCAAAAAAACCCACUAAAGUGAAGCAUUUCUUGAUUCCCUUUUCCAUGCUGGUGCCUAGCCCGGGUGAGUGUGGAAUUCUCGGGUGCCAA: 0.427
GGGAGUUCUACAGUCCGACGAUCUUAGUUGUAGCUGCCAUGCUCAGAAUUGCCUUUUGAGAGCUGAAGCAAGGUGCUUACUGUCACCUGAUGCCAUACACAUGGUCCCAGGCCCACACCCGGGGGGCCUCUGUUGGAAUUCUCGGGUGCCAA: 0.494
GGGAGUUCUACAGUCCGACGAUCACAAAUUGUCUUAUAUAUGAAGCCAUAGAUUAAAUUAUGCUUUAUUCUUAAUGGCAUCUAAGCUAUUAUACAGACUUACUAACACUGUCAGAAAACAAAAAAACAGGUCCUGGAAUUCUCGGGUGCCAA: 0.328
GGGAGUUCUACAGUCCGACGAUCCAGGUGUACCUCAAUCCACAUUACAGCCAUGCUCCUAAUGUACAUGGACAUUUUUGUAACUCAGCUCAUAUUCUGACUGUAUUUGAGAAGCUGGCUGUUUAAGGGAACCCUGGAAUUCUCGGGUGCCAA: 0.613
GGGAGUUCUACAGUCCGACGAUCAACUGCGCCUGCAGUCACUAUCCCUACUUUUGUGGUUCAUAGAAGUCUGCAUGUGCGUUGAUUCUGUAGAGCUGUUAGUGGCUUAGUUUUUAAACUCCUAUUGGGGAGUAUGGAAUUCUCGGGUGCCAA: 1.08
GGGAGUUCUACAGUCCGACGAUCUAUACCCAGGAGAAUAUGUAUACCAUGUGUGUUUGACUAAGUUCACAAGGGAAGUUUUUGGCUCUGCACUCCACAUUAUCCUUUAAUUUCAAUUUCCUGGGACUAUCCCAUGGAAUUCUCGGGUGCCAA: 0.542
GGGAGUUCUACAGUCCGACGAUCAAUGUUUGAUAUUUUAUACCAGCUUAUGAGCUCAAAGUACUACAGCAAAGCCUAGCCUGCAUAUCAUUCACCCAAAACAAAGUAAUAGCGCCUCUUUUAUUAUUUUGACUUGGAAUUCUCGGGUGCCAA: 0.878

Single results of other studies
PhoQ, residues 284 288 289 292 302 303 SASVAL  fold induction (PhoP, residues 12 14 15 18 19 NFCKL (Escherichia coli, UniProt P23836); Sort-seq, refers to: YFP reporter; E. coli; PhoQ-PhoP variant library, together with: 10 µM Mg2+; baseline: high Mg2+ state, higher = stronger signaling): 0.533

Some of these lines once more (study 3):
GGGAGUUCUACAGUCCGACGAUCUAUACCCAGGAGAAUAUGUAUACCAUGUGUGUUUGACUAAGUUCACAAGGGAAGUUUUUGGCUCUGCACUCCACAUUAUCCUUUAAUUUCAAUUUCCUGGGACUAUCCCAUGGAAUUCUCGGGUGCCAA: 0.542
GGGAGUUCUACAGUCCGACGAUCGUUUCAUCAGAUCUGAUUUCUGAGAGUCUGGGGAUCUGCCAUGGUGGAAAGUGCCCCUCAAAAGCAUUUGUGUGGCCACAUGAACUGGCUGGCACCAGGGGAGUGAAACUUGGAAUUCUCGGGUGCCAA: 0.439
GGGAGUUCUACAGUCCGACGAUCGACUGUGUGGGGCUCAGCAUUGGGAGGGGUUGCACAUGUCCCAGCCUUUGGCCCCCUUACUUUUCAGCAAGCCAGGGGCCCAGCAGUCAGCUCCCAGGAUGUGUGGGGAGUGGAAUUCUCGGGUGCCAA: 2.73
